Measured values from different studies.
Compare with care: the assays were run in different laboratories. ± gives the spread as reported.

SMILES	species	sample	route	dose	time	tissue uptake
CCCC[C@H](NC(=O)CCCCCCCNC(=O)CN1CCN(CC(=O)O)CCN(CC(=O)O)CC1)C(=O)N[C@H]1CC(=O)NCCCC[C@@H](C(N)=O)NC(=O)[C@H](Cc2c[nH]c3ccccc23)NC(=O)[C@H](CCCNC(=N)N)NC(=O)[C@@H](Cc2ccccc2)NC(=O)[C@H](Cc2c[nH]cn2)NC1=O [copper-64 labelled]	C57 mice	brain	intravenous	0.37 MBq	2 h	0.04 ± 0.01 %ID/g
N=C(N)NCCC[C@@H]1NC(=O)[C@H](CCCCNC(=O)CNC(=O)CNC(=O)CNC(=O)CC[C@H](NC(=O)CNC(=O)CNC(=O)CNC(=O)CC[C@H](NC(=O)CN2CCN(CC(=O)O)CCN(CC(=O)O)CCN(CC(=O)O)CC2)C(=O)NCC(=O)NCC(=O)NCC(=O)N[C@@H](CCC(=O)NCC(=O)NCC(=O)NCC(=O)NCCCC[C@@H]2NC(=O)[C@@H](Cc3ccccc3)NC(=O)[C@H](CC(=O)O)NC(=O)CNC(=O)[C@H](CCCNC(=N)N)NC2=O)C(=O)NCC(=O)NCC(=O)NCC(=O)NCCCC[C@@H]2NC(=O)[C@@H](Cc3ccccc3)NC(=O)[C@H](CC(=O)O)NC(=O)CNC(=O)[C@H](CCCNC(=N)N)NC2=O)C(=O)NCC(=O)NCC(=O)NCC(=O)NCCCC[C@@H]2NC(=O)[C@@H](Cc3ccccc3)NC(=O)[C@H](CC(=O)O)NC(=O)CNC(=O)[C@H](CCCNC(=N)N)NC2=O)NC(=O)[C@@H](Cc2ccccc2)NC(=O)[C@H](CC(=O)O)NC(=O)CNC1=O [indium-111 labelled]	female athymic nu/nu mice	U87MG tumour	intravenous	111 kBq	4 h	8.99 ± 2.61 %ID/g
CCCC[C@H](NC(=O)COCCOCCNC(=O)CN1CCN(CC(=O)O)CCN(CC(=O)O)CC1)C(=O)N[C@H]1CC(=O)NCCCC[C@@H](C(N)=O)NC(=O)[C@H](Cc2c[nH]c3ccccc23)NC(=O)[C@H](CCCNC(=N)N)NC(=O)[C@@H](Cc2ccccc2)NC(=O)[C@H](Cc2c[nH]cn2)NC1=O [copper-64 labelled]	C57 mice	bone	intravenous	0.37 MBq	0.5 h	2 ± 0.42 %ID/g
CC(C)C[C@H](NC(=O)[C@H](Cc1ccc(O)cc1)NC(=O)[C@@H](CCCNC(=N)N)NC(=O)[C@@H](CO)NC(=O)[C@H](Cc1ccccc1)NC(=O)[C@H](CC1CCCCC1)NC(=O)[C@H](CC(=O)O)NC(=O)CN1CCCN2CCN(CCCN(CC(=O)O)CC2)CC1)C(=O)N[C@@H](Cc1c[nH]c2ccccc12)C(=O)N[C@@H](CO)C(=O)O [copper-64 labelled]	female NMRI nude mice	heart	–	–	22 h p.i.	1 ± 0.2 %ID/g
N=C(N)NCCC[C@@H]1NC(=O)[C@H](CCCCNC(=O)CNC(=O)CNC(=O)CNC(=O)CC[C@H](NC(=O)CNC(=O)CNC(=O)CNC(=O)CN2CCN(CC(=O)O)CCN(CC(=O)O)CCN(CC(=O)O)CC2)C(=O)NCC(=O)NCC(=O)NCC(=O)NCCCC[C@@H]2NC(=O)[C@@H](Cc3ccccc3)NC(=O)[C@H](CC(=O)O)NC(=O)CNC(=O)[C@H](CCCNC(=N)N)NC2=O)NC(=O)[C@@H](Cc2ccccc2)NC(=O)[C@H](CC(=O)O)NC(=O)CNC1=O [indium-111 labelled]	female athymic nu/nu mice	spleen	intravenous	111 kBq	24 h	0.91 ± 0.1 %ID/g
CCCC[C@H](NC(=O)CNC(=O)CNC(=O)CN1CCN(CC(=O)O)CCN(CC(=O)O)CCN(CC(=O)O)CC1)C(=O)N[C@H]1CC(=O)NCCCC[C@@H](C(N)=O)NC(=O)[C@H](Cc2c[nH]c3ccccc23)NC(=O)[C@H](CCCNC(=N)N)NC(=O)[C@@H](Cc2ccccc2)NC(=O)[C@H](Cc2c[nH]cn2)NC1=O [lutetium-177 labelled]	C57 mouse, female	pancreas	intravenous	0.037 MBq	2 h	0.2 ± 0.05 %ID/g
CCCC[C@H](NC(=O)CNC(=O)CNC(=O)CN1CCN(CC(=O)O)CCN(CC(=O)O)CC1)C(=O)N[C@H]1CC(=O)NCCCC[C@@H](C(N)=O)NC(=O)[C@H](Cc2c[nH]c3ccccc23)NC(=O)[C@H](CCCNC(=N)N)NC(=O)[C@@H](Cc2ccccc2)NC(=O)[C@H](Cc2c[nH]cn2)NC1=O [technetium-99m labelled]	C57 mouse	stomach	iv	0.037 MBq	0.5 h	1.11 ± 0.42 %ID/g
N=C(N)NCCC[C@@H]1NC(=O)[C@H](CCCCNC(=O)CC[C@H](NC(=O)CC[C@H](NC(=O)CN2CCN(CC(=O)O)CCN(CC(=O)O)CCN(CC(=O)O)CC2)C(=O)N[C@@H](CCC(=O)NCCCC[C@@H]2NC(=O)[C@@H](Cc3ccccc3)NC(=O)[C@H](CC(=O)O)NC(=O)CNC(=O)[C@H](CCCNC(=N)N)NC2=O)C(=O)NCCCC[C@@H]2NC(=O)[C@@H](Cc3ccccc3)NC(=O)[C@H](CC(=O)O)NC(=O)CNC(=O)[C@H](CCCNC(=N)N)NC2=O)C(=O)NCCCC[C@@H]2NC(=O)[C@@H](Cc3ccccc3)NC(=O)[C@H](CC(=O)O)NC(=O)CNC(=O)[C@H](CCCNC(=N)N)NC2=O)NC(=O)[C@@H](Cc2ccccc2)NC(=O)[C@H](CC(=O)O)NC(=O)CNC1=O [indium-111 labelled]	female athymic nu/nu mice	eyes	intravenous	–	1 h	1.23 ± 0.1 %ID/g
CC(C)C[C@H](NC(=O)[C@@H](CCCCNC(=O)CCCCCNC(=O)CN1CCN(CC(=O)O)CCN(CC(=O)O)CCN(CC(=O)O)CC1)NC(=O)[C@H](Cc1ccc(O)cc1)NC(=O)[C@H](CO)NC(=O)[C@H](Cc1c[nH]c2ccccc12)NC(=O)[C@H](Cc1cnc[nH]1)NC(=O)[C@@H]1CCC(=O)N1)C(=O)N[C@@H](CCCNC(=N)N)C(=O)N1CCC[C@H]1C(=O)NCC(N)=O [indium-111 labelled]	female athymic nude mouse	kidneys	intravenous	0.037 MBq	24 h	4.43 ± 1.67 %ID/g

Some of these lines once more:
SMILES	species	sample	route	dose	time	tissue uptake
CCCC[C@H](NC(=O)CCCCCCCNC(=O)CN1CCN(CC(=O)O)CCN(CC(=O)O)CC1)C(=O)N[C@H]1CC(=O)NCCCC[C@@H](C(N)=O)NC(=O)[C@H](Cc2c[nH]c3ccccc23)NC(=O)[C@H](CCCNC(=N)N)NC(=O)[C@@H](Cc2ccccc2)NC(=O)[C@H](Cc2c[nH]cn2)NC1=O [copper-64 labelled]	C57 mice	brain	intravenous	0.37 MBq	2 h	0.04 ± 0.01 %ID/g
